Results from different studies.
“And” joins repeats or separate records; there may be more than shown.
rep main protease: Replicase polyprotein 1ab, main protease (rep, Severe acute respiratory syndrome coronavirus 2, UniProt P0DTD1)
rep papain-like protease: Replicase polyprotein 1ab, papain-like protease (rep, Severe acute respiratory syndrome coronavirus 2, UniProt P0DTD1)

| Compound | target | test | test system | conditions | inhibition |
| --- | --- | --- | --- | --- | --- |
| C[C@](C(=O)NC1CCC(F)(F)CC1)(c1cncnc1)N(C(=O)[C@H](F)Cl)c1ccc(OC(F)(F)F)cc1 | rep main protease | enzyme activity, inhibitor | – | 8.333 µM | 100% |
| NS(=O)(=O)c1ccc(CCNC(=O)OC(=O)c2ccccc2NC(=O)c2ccco2)cc1 | rep papain-like protease | enzyme activity, inhibitor | – | 100 µg/mL | 0% |
| O=C1c2ccccc2C(=O)c2oc(-c3ccccc3)nc21 | rep papain-like protease | enzyme activity, inhibitor | – | 60 µM | ≤ 50% |
| O=C(Oc1cncc(Cl)c1)c1cccc2cc[nH]c12 | rep main protease | enzyme activity, inhibitor, fluorescence | – | 10 µM, pH 7.2 | 100% |
| COc1cc(Oc2c(OC)cc(C)c(Br)c2O)c(C(=O)O)c(C)c1O | rep main protease | enzyme activity, inhibitor, FRET | – | 10 µM | 20.6% |
| CC(=O)Oc1cccc2c1C(=O)C=CC2=O | rep main protease | enzyme activity, inhibitor | – | 1 µM | 101% |
| C[C@](C(=O)NC1CCOCC1)(c1cncnc1)N(C(=O)[C@H](F)Cl)c1ccc(OC(F)(F)Cl)cc1 | rep main protease | enzyme activity | – | 0.041 µM | 94.1% and 90.7% |
| COc1ccc(-c2cc(=O)c3c(O)c(Oc4ccc(-c5cc(=O)c6c(O)cc(O)cc6o5)cc4)c(OC)cc3o2)cc1 | rep papain-like protease | enzyme activity, inhibitor | – | 10 µM | 65.6 to 98% |
| COc1cc(OC)cc(C(=O)N(CCC(=O)N2CCNCC2)Cc2cccc(Cl)c2)c1 | Replicase polyprotein 1ab, nsp3 macrodomain (rep, Severe acute respiratory syndrome coronavirus 2, UniProt P0DTD1) | ADP-ribosylhydrolase activity, gel-based | – | concentration not given | inhibited |
| COC(=O)C[C@@H](C(=O)OC)n1[se]c2ccccc2c1=O | rep main protease | enzyme activity, inhibitor | – | 40 µM | 105% |
| C[C@@H](Cc1ccc(O)c(O)c1)[C@@H](C)Cc1ccc(O)c(O)c1 | rep main protease | enzyme activity, inhibitor, FRET | – | 8 µM | 48.4% |
| CC(NC(=O)C(Cc1ccccc1)NC(=O)OCc1ccccc1)C(=O)CF (stereo not drawn) | rep main protease | enzyme activity, inhibitor | – | 57.5 µM | 88.7% |
| Nc1cncc(-n2[se]c3ccccc3c2=O)c1 | rep main protease | enzyme activity, inhibitor | – | 0.3 µM | 41.7% |
| CC(C)[C@H](NC(=O)c1ccccc1[Se][Se]c1ccccc1C(=O)N[C@H](C(=O)O)C(C)C)C(=O)O | rep main protease | enzyme activity, inhibitor | – | 40 µM, mean of repeats | 104% |
| O=C(OCC(=O)c1ccc([N+](=O)[O-])cc1)/C(=C/c1ccc(Cl)cc1)NC(=O)c1ccccc1 | rep main protease | enzyme activity, inhibitor | – | 100 µM | 99.3% |
| O=C(c1ccc([N+](=O)[O-])c(-n2ccnc2)c1)N(c1cccc(Cl)c1)c1nc2ccccc2s1 | rep main protease | reporter gene, inhibitor | HEK293T | 10 µM, primary screen, wild type | 9.8% |
| CC[C@@H](C)[C@H](NC(=O)c1ccccc1[Se][Se]c1ccccc1C(=O)N[C@H](C(=O)O)[C@H](C)CC)C(=O)O | rep main protease | enzyme activity, inhibitor | – | 40 µM, mean of repeats | 72.2% |
| O=C(NC1CCC(F)(F)CC1)C(c1cncnc1)N(C(=O)C(F)Cl)c1ccc(OC(F)(F)F)cc1 (stereo not drawn) | rep main protease | enzyme activity | – | 0.0013 µM | 5.73% and -4.2% and 4.19% |
| CC1C(n2[se]c3ccccc3c2=O)CC2CC1C2(C)C (stereo not drawn) | rep main protease | enzyme activity, inhibitor | – | 40 µM | 102% |
| O=C(NC1CCN(c2ncnc3[nH]cnc23)CC1)c1cccc(NS(=O)(=O)c2ccc(C(F)(F)F)cc2)c1 | Replicase polyprotein 1ab, nsp14 with nsp10 (rep, Severe acute respiratory syndrome coronavirus 2, UniProt P0DTD1) | exonuclease activity | SARS-CoV-2 | 12.5 µM | 10.4% |
| CC1C(NC(=O)c2ccccc2[Se][Se]c2ccccc2C(=O)NC2CC3CC(C2C)C3(C)C)CC2CC1C2(C)C (stereo not drawn) | rep main protease | enzyme activity, inhibitor | – | 40 µM, mean of repeats | 93.1% |
| O=C(NC1CCC(F)(F)CC1)C(c1cncnc1)N(C(=O)C(F)Cl)c1ccc(-c2cncs2)cc1 (stereo not drawn) | rep main protease | enzyme activity, inhibitor | – | 0.103 µM | 86.1% |
| O=C(CCc1ccccc1)NOC(=O)OCc1ccccc1 | rep main protease | enzyme activity | – | 1.25 µM, 100 min preincubation | ~90% |
| CC1(C)C2CCC(Cn3[se]c4ccccc4c3=O)C1C2 (stereo not drawn) | rep main protease | enzyme activity, inhibitor | – | 40 µM, mean of repeats | 103% |
| O=c1c2ccccc2[se]n1-c1cccc(C(F)(F)F)c1 | rep main protease | enzyme activity, inhibitor | – | 0.3 µM | 19.2% |
| CCOC(=O)[C@H](C(C)C)n1[se]c2ccccc2c1=O | rep main protease | enzyme activity, inhibitor | – | 40 µM, mean of repeats | 105% |
| C=C1CC[C@@H]2[C@](C)(COC(C)=O)[C@H](OC(C)=O)CC[C@@]2(C)[C@@H]1C[C@H](SC(=S)N1CCN(C(c2ccc(F)cc2)c2ccc(F)cc2)CC1)C1=CCOC1=O | rep main protease | enzyme activity, inhibitor, fluorescence | – | 10 µM | > 50% |
| COc1cc2[nH]c(=O)n(CCC(=O)NCc3ccc4c(c3)OCO4)c(=O)c2cc1OC | rep papain-like protease | enzyme activity, inhibitor | – | 100 µg/mL | 0.53% |
| COC(=O)C[C@H](NC(=O)c1ccccc1[Se][Se]c1ccccc1C(=O)N[C@@H](CC(=O)OC)C(=O)OC)C(=O)OC | rep main protease | enzyme activity, inhibitor | – | 40 µM | 106% |
| Cc1nc(-c2cccnc2)sc1C(=O)Nc1ccccc1-c1cn2c(CN3CCOCC3)csc2n1 | rep main protease | enzyme activity, inhibitor | – | 50 µM | 19.4% |
